# Results from different studies.
# Protocols differ between the studies behind these lines. ± gives the spread as reported.
# Organism: Trypanosoma brucei brucei
Structure (SMILES),test,test system,setting,scale,measurement,value
CCOC(=O)CNC(=O)CN1C(=O)S/C(=C\c2ccc(C)cc2)C1=O,cell viability,GUTat3.1,72 h,,IC50,> 63 µM
CC[Se][C@@H]1O[C@H](COC(C)=O)[C@@H](OC(C)=O)[C@H](OC(C)=O)[C@H]1NC(C)=O,,bloodstream form,"5 µM, 24 h, 1 % DMSO",,viability,98.3 ± 20.7%
Cc1ccc(/C=N/N=C/c2ccc([N+](=O)[O-])s2)cc1,"parasite growth, CellTiter-Glo",GUTat3.1 bloodstream form,72 h,,IC50,2.09 ± 1.21 µM
CC(=O)N[C@@H]1[C@@H](OC(C)=O)[C@H](OC(C)=O)[C@@H](COC(C)=O)O[C@H]1[Se]C(C)=O,,bloodstream form,"5 µM, 24 h, 1 % DMSO",,viability,96.4 ± 13.4%
CC(=O)OC[C@H]1O[C@@H]([Se][Se][C@@H]2O[C@H](COC(C)=O)[C@H](OC(C)=O)[C@H](OC(C)=O)[C@H]2OC(C)=O)[C@H](OC(C)=O)[C@@H](OC(C)=O)[C@H]1OC(C)=O,,bloodstream form,"EC50, 4 h",relative to: DMSO,glucose consumption,< 30%
Nc1ncnc2c1c(-c1ccccn1)cn2[C@@H]1O[C@H](CO)[C@@H](O)[C@H]1O,"parasite growth, resazurin",Squib 427,72 h,,EC50,0.31 ± 0.06 µM
O=[N+]([O-])c1ccc(/C=N/N=C/c2ccc(F)cc2)o1,"parasite growth, CellTiter-Glo",GUTat3.1 bloodstream form,72 h,,IC50,2.03 ± 0.95 µM
CC(=O)N[C@@H]1[C@@H](OC(C)=O)[C@H](OC(C)=O)[C@@H](COC(C)=O)O[C@H]1[Se]C(=O)c1ccc(C)cc1,,bloodstream form,"5 µM, 24 h, 1 % DMSO",,viability,90.4 ± 20.2%
Nc1ncnc2c1c(I)cn2[C@@H]1O[C@H](CO)C[C@H]1O,"parasite growth, resazurin",Squib 427,72 h,,EC50,0.0085 ± 0.0004 µM
CS[Se][C@@H]1O[C@H](COC(C)=O)[C@@H](OC(C)=O)[C@H](OC(C)=O)[C@H]1OC(C)=O,,bloodstream form,"5 µM, 24 h, 1 % DMSO",,viability,83%
COc1ccc(/C=N/N=C/c2ccc([N+](=O)[O-])s2)cc1,"parasite growth, CellTiter-Glo",GUTat3.1 bloodstream form,72 h,,IC50,1.05 ± 0.48 µM
CC(Nc1c(-c2c(F)cc(OCCCN(C)C)cc2F)c(Cl)nc2ncnn12)C(C)(C)C (stereo not drawn),,Lister 427,"4 µM, 12 h",,viability,~1%
Cc1nc(C(=O)N2CCC[C@H]2C(=O)N[C@@H](CCC(=O)O)C(=O)N[C@@H](CC(C)C)C(=O)NC(C)(C)C(=O)N[C@@H](CC(C)C)C(=O)N[C@@H](CC(C)C)C(=O)NC(C)(C)C(=O)NC(C)(C)C(=O)NCCC(=O)NC2(CN(C)C)CCC2)co1,TMRE,bloodstream form,concentration not given,relative to: untreated,mitochondrial membrane potential,no effect
Cc1ccc(N2Cc3cc(NC(=O)N4CCN(c5cccc(C(F)(F)F)c5)CC4)ccc3C2=O)cc1,"cell growth, resazurin",Squib 427,3 days,,IC50,2.4 µM
O=[N+]([O-])c1ccc(/C=N/N=C/c2ccc(F)cc2)s1,"parasite growth, CellTiter-Glo",GUTat3.1 bloodstream form,72 h,,IC50,0.46 ± 0.2 µM
CC(=O)N[C@@H]1[C@@H](OC(C)=O)[C@H](OC(C)=O)[C@@H](COC(C)=O)O[C@H]1[Se]Sc1ccccc1,,bloodstream form,"5 µM, 24 h, 1 % DMSO",,viability,≤ 50%
O=[N+]([O-])c1ccc(/C=N/N=C/c2ccc(Cl)cc2)o1,"parasite growth, CellTiter-Glo",GUTat3.1 bloodstream form,72 h,,IC50,1.02 ± 0.43 µM
Nc1ncnc2c1c(F)cn2[C@@H]1O[C@H](CO)C[C@H]1O,"parasite growth, resazurin",Squib 427,72 h,,EC50,0.002 ± 0.001 µM
CC(=O)OC[C@H]1O[C@@H]([Se]c2ccccc2)[C@H](OC(C)=O)[C@@H](OC(C)=O)[C@@H]1OC(C)=O,,bloodstream form,"5 µM, 24 h, 1 % DMSO",,viability,96.4 ± 13.4%
CCc1cccc(Nc2c(C(N)=O)cnc3c(C)cc(-c4ccc5cnn(C)c5c4)cc23)c1,"cell growth, Alamar blue","bloodstream form, strain 427",48 h,,EC50,8.7 ± 1.8 µM
CC(=O)OC[C@H]1O[C@@H]([Se]c2ccc([N+](=O)[O-])cn2)[C@H](OC(C)=O)[C@@H](OC(C)=O)[C@@H]1OC(C)=O,,bloodstream form,"5 µM, 24 h, 1 % DMSO",,viability,73.6 ± 2.7%
Cc1ccc(N2Cc3cc(NC(=O)N4CCN(c5ccc(F)cc5)CC4)ccc3C2=O)cc1,"cell growth, resazurin",Squib 427,3 days,,IC50,> 64 µM
Cc1ncnc2c1c(C(F)(F)F)cn2[C@@H]1O[C@H](CO)[C@@H](O)[C@H]1O,resazurin,Squib 427,axenic HMI-9 medium,,EC50,0.58 µM
C=Cc1cn([C@@H]2O[C@H](CO)C[C@H]2O)c2ncnc(N)c12,"parasite growth, resazurin",Squib 427,72 h,,EC50,0.036 ± 0.005 µM
O=C(Nc1ccc2c(c1)CN(c1ccc(Cl)cc1)C2=O)N1CC[C@H](O)C1,"parasite growth, resazurin",Squib 427,3 d,,IC50,> 64 µM
CC(C)Oc1ncnc2c1c(Cl)cn2[C@@H]1O[C@H](CO)[C@@H](O)[C@H]1O,"parasite growth, resazurin",Squib 427,72 h,,EC50,0.09 ± 0.04 µM
O=C(Nc1ccc2c(c1)CN(c1ccc(Cl)cc1)C2=O)N1CC[C@H](F)C1,"cell growth, resazurin",Squib 427,"concentration not given, 3 days",,growth inhibition,inactive
O=[N+]([O-])c1ccc(/C=N/N=C/c2ccccc2)s1,"parasite growth, CellTiter-Glo",GUTat3.1 bloodstream form,72 h,,IC50,0.3 ± 0.1 µM
CCOC(=O)CNC(=O)CN1C(=O)S/C(=C\c2ccc(OC)c(O)c2)C1=O,cell viability,GUTat3.1,72 h,,IC50,> 64 µM
CC(=O)N[C@@H]1[C@@H](OC(C)=O)[C@H](OC(C)=O)[C@@H](COC(C)=O)O[C@H]1[Se]Cc1ccc([N+](=O)[O-])cc1,,bloodstream form,"5 µM, 24 h, 1 % DMSO",,viability,≤ 50%
O=C(Nc1ccc2c(c1)CN(c1ccc(Br)cc1)C2=O)N1CCN(c2ccc(F)cc2)CC1,,"Squib 427, mouse, infected","oral, 50 mg/kg twice daily, day 4",,parasitaemia,8.9 log10
COc1cccc(Nc2c(C(N)=O)cnc3c(C)cc(-c4ccc5cnn(C)c5c4)cc23)c1,"cell growth, Alamar blue","bloodstream form, strain 427",48 h,,EC50,6.8 ± 0.82 µM
CCOC(=O)C(CC)NC(=O)CN1C(=O)S/C(=C\c2ccc(OC)cc2)C1=O (stereo not drawn),cell viability,GUTat3.1,72 h,,IC50,> 58 µM
Cc1ccc(/C=N/N=C/c2ccc([N+](=O)[O-])o2)cc1,"parasite growth, CellTiter-Glo",GUTat3.1 bloodstream form,72 h,,IC50,3.25 ± 1.94 µM
Nc1ncnc2c1c(C(F)(F)F)cn2[C@@H]1O[C@H](CO)[C@@H](O)[C@H]1O,"parasite growth, resazurin",Squib 427,72 h,,EC50,0.69 ± 0.11 µM
O=C(Nc1ccc2c(c1)CN(c1ccc(F)c(F)c1)C2=O)N1CCN(c2ccc(F)cc2)CC1,"cell growth, resazurin",Squib 427,3 days,,IC50,> 64 µM

# Some of these lines once more:
Structure (SMILES),test,test system,setting,scale,measurement,value
Cc1ccc(/C=N/N=C/c2ccc([N+](=O)[O-])o2)cc1,"parasite growth, CellTiter-Glo",GUTat3.1 bloodstream form,72 h,,IC50,3.25 ± 1.94 µM
CC(C)Oc1ncnc2c1c(Cl)cn2[C@@H]1O[C@H](CO)[C@@H](O)[C@H]1O,"parasite growth, resazurin",Squib 427,72 h,,EC50,0.09 ± 0.04 µM
Cc1ccc(N2Cc3cc(NC(=O)N4CCN(c5ccc(F)cc5)CC4)ccc3C2=O)cc1,"cell growth, resazurin",Squib 427,3 days,,IC50,> 64 µM
Cc1ccc(N2Cc3cc(NC(=O)N4CCN(c5cccc(C(F)(F)F)c5)CC4)ccc3C2=O)cc1,"cell growth, resazurin",Squib 427,3 days,,IC50,2.4 µM
Nc1ncnc2c1c(F)cn2[C@@H]1O[C@H](CO)C[C@H]1O,"parasite growth, resazurin",Squib 427,72 h,,EC50,0.002 ± 0.001 µM
